{"data": "Results gathered from unrelated publications", "note": "Every numbered part comes from another study and shows a few of its results, in no order."}
{"data": "Study 1", "target": "Fragile X messenger ribonucleoprotein 1, C-terminal low-complexity region (Fmr1, Mus musculus, UniProt P35922)", "method": "RNA Bind-n-Seq", "molecule type": "RNA", "medium": "in vitro", "tested at": "200 nM", "notes": "whole 134-nt RNA, ends assumed", "added": "150 mM LiCl", "relative to": "input library", "direction": "higher = stronger binding", "library": "7-deaza-guanosine replaces G", "shared flanks, not repeated": "GGGAGUUCUACAGUCCGACGAUC … UGGAAUUCUCGGGUGUCAAGG"}
{"Strand": "CCUGUGCUACACAUCGUAUGUACCGAAUCGGGCCCCCCCGGGCCCCCCCGGGCCCCCCCGGAAAGUAUUAUGUUACGCCGUUCGGAUCUG", "log2 enrichment": 0.139}
{"Strand": "UGGCCCUGGUGGCAUGCGGGGAGGAAGAGGUGGCCUCAUGGAUCGUGGUGGACCCGGUGGAAUGUUCAGAGGUGGCCGUGGUGGAGACAG", "log2 enrichment": 0.542}
{"Strand": "UGGGAGGUGGAUUUUGUUUAUUUUUUUAGCUCAUUUCCAGGGGUGGGAAUCUUUUUUUAAUAUGUGUCAUGAAUAAAGUUGUUUUUGAAA", "log2 enrichment": -0.185}
{"Strand": "ACAGAGGGUUUGGUGGACGUUAUUCUCUAUCAUCAACCCGAUGACAAAAAGAAGAAUCGGGGGUUCUGCUUCCUUGAAUAUGAGGAUCAC", "log2 enrichment": -3.02}
{"Strand": "AAGUCCUGUGCUACACAUCGUAUGUACCGAAUCGGAAAAAGGAAAAAAAGGUUUGGAAAGUAUUAUGUUACGCCGUUCGGAUCUGCACUU", "log2 enrichment": -3.52}
{"Strand": "UUUGGAGAAGGAACCCCACUCUCCAGCUGACCAGCCUGAACAACAGGCAGAAUCCACUUUGACAUCAGCUGAGACUAGGGGAAGCAAGAA", "log2 enrichment": -0.504}
{"Strand": "GUCCUGUGCUACACAUCGUAUGUACCGAAUCAAACCCAAACCCCCAAACCCCCCCAAAAAAGUAUUAUGUUACGCCGUUCGGAUCUGCAC", "log2 enrichment": 0.536}
{"Strand": "ACCAUGCAGGUAGGCAUCUUUGGGAAGUGGGGCAAGGGGGGGAUAGGGAGGGGGGUAACACUUUGGGAACAGGUGGUCCCAGGUCGUUUC", "log2 enrichment": 1.4}
{"data": "Study 2", "target": "RNA binding protein fox-1 homolog 2, RRM domain, GST-SBP tag (RBFOX2, Homo sapiens, UniProt O43251-10, residues 100-194)", "method": "RNA Bind-n-Seq", "molecule type": "RNA", "medium": "in vitro", "tested at": "365 nM", "notes": "natural RNA segment, single round, ends assumed", "relative to": "no-protein control", "direction": "higher = stronger binding", "shared flanks, not repeated": "GGGAGUUCUACAGUCCGACGAUC … UGGAAUUCUCGGGUGCCAA", "Target sequence (chain)": "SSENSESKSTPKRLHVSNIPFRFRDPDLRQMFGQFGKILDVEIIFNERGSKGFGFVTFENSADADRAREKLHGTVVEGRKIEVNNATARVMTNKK"}
{"Strand": "UCCUCAGAAGGUUCAUCACGGAAUUUCCUGACAUGCACUGUAGAUGCUACAAACAUGUCUACCCAGGGUACCACUGAGCUACGUCUUCCUCAUGGGGCAGACGUGAUUGG", "RBNS enrichment (R)": 0.17}
{"Strand": "GAAAUAUAUCUACCCAAAGAGGUAACAUCCUAUAAAUAGUAGUAAUUAAUUUAGCUGCAACCUUUUUAGGUAUUAAAUUACAUGACAAACAGUUAAAAUGAAUUUAAGAA", "RBNS enrichment (R)": 0.557}
{"Strand": "CGAGGCCCAGGUGUGGAAGCCCUCCUUCUGCUUCAAGUAACACAUCUCAGGGCCUGUCUUGUCCCCUUCUCGGAGGGCCAGAGAAAAGAUGUGGGAAGGAUAUAGCUCGG", "RBNS enrichment (R)": 0.399}
{"Strand": "CUACAAAGAUAUAUGUCUAAAGUUGGAAAAUCAACUUCUGCUUUCUCAGAAUGGGAGACCGAGCGCAGGUUAGGCACCCCUCCCCCUUGCAUCUGUGAGUCCCUCUGGGC", "RBNS enrichment (R)": 0.727}
{"Strand": "GGGUGUUCACAGAUGGAGCGAGCUUGCAGCCGCGUGGCUGUGCUGCUCUGUGAGAAGGCGUGCCAGCCAUUAGGAAGCCCCACCGCCAAAGGAGGUGCACCCAGGAGGGU", "RBNS enrichment (R)": 0.911}
{"Strand": "AGACGGGAACGGAAGCAGUUCCGCAGGACUGGCGCGGAGGCUCGCCACCCACCCACAGAUUUGGUUCGGUUUGGUUGUUUACCAGAUCACAUGAUGUCGAUGUCCCAAGG", "RBNS enrichment (R)": 0.528}
{"Strand": "AUCGGCUGGAGCAUGGGACCAUAGCCCCUGCCCAGGAGCCGUACCCUCGGACCACAGUGGCUCUGUAUGGCCAGGAACUGGGACUCGAGCUUUCAGAUUCUCAACUAGCC", "RBNS enrichment (R)": 0.416}
{"Strand": "ACUCCCAUAUAAGCAUUCAAUCAGUGUAACUUGCAAAAUGCAUAAACAUCCGACAGUUUGAAUUUAUAGUGUUGAUGGAAGAAAUCAUUUUUAAUGUGUACUGUAAAACU", "RBNS enrichment (R)": 0.671}
{"data": "Study 3", "target": "RING finger protein unkempt homolog, zinc fingers 1-6, GST-SBP tag (UNK, Homo sapiens, UniProt Q9C0B0, residues 30-357)", "method": "RNA Bind-n-Seq", "molecule type": "RNA", "medium": "in vitro", "tested at": "not given", "notes": "RNA with constant flanks, ends assumed", "relative to": "input RNA pool", "direction": "higher = stronger binding", "shared flanks, not repeated": "GGGAGUUCUACAGUCCGACGAUC … CAACAGAGGAUUGAGCAUCA", "sequence of UniProt Q9C0B0 (30-357, looked up)": "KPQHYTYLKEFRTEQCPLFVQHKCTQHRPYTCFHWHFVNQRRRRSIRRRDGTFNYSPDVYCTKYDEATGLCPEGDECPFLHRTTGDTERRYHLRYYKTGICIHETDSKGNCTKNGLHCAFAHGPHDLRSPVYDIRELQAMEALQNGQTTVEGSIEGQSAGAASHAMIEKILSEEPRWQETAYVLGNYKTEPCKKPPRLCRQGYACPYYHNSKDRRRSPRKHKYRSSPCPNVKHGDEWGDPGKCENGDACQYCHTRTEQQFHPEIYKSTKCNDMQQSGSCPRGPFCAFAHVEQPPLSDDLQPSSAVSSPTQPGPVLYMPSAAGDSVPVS"}
{"Strand": "GGUCGUGGUGUUUUAAAAGCAUAAGUUACCUGUUUGCACUGUUUUAAGAUAGGAAAAAAAAACCGUGGGCAAGGUGAACAUCAGACGUAAAUUUGUGUGUUUUUAUUUUGUCAUGCUCUU", "bound/input enrichment [ratio]": 0.423}
{"Strand": "UUUUAAGUGUGUCAUUGCCCUCCCCUGUGGUCAUCUGGGUACCCCUGCCCAUCCAUUGUUUUCCGAACAACCCUAACUGCUUCGGAAAACACUCCCAAGAACUCUAGUGUUGGUUUGUCU", "bound/input enrichment [ratio]": 0.884}
{"Strand": "AUAAAGACCGAGCAGUACAAAACAGGUCACCACUCGCCUCGAGGACAAACGUUGGACCGCACCGACCCUGUGGCCAGGGGUCCCAGCCCCCUGAGUUCUCACAUCAGCCCCGGCAGCUCC", "bound/input enrichment [ratio]": 0.107}
{"Strand": "GAUGAAAAGCCAGUGAGUGUUAAUGAAGUACCAGACUACCAUGAGGAUAUUCACACAUACCUCCGGGAAAUGGAGGUUAAAUGUAAACCUAAAGUGGGUUACAUGAAGAAACAGCCAGAC", "bound/input enrichment [ratio]": 0.189}
{"Strand": "GCUGGAUAUGGAGACAUUUACCUCAAUGCUGGUCCCAUGUUGUUUAGUGGAGACAAGGACCACCGAUUUGAAUAUAGCCAUGGUCCUAUUGCAGUCCUGGCAAACAGCAGUGACCCUUCC", "bound/input enrichment [ratio]": 0.126}
{"Strand": "CAAAAUUACCAAGAAUACAAUCUGGCCAACAUCAUCUACUACUCUCUGAAGGAGUCCACCACCCGUGAGCAGAGUGCCAGGAUGACAGCCAUGGACAAUGCCAGCAAGAAUGCUUCUGAG", "bound/input enrichment [ratio]": 0.171}
{"Strand": "CGAGUUGAUCAAGGGGCUGCAACAGCUCUCAGUAGGAAAGACAAUGCCAGCAACAUAUACCGCAAAAAUACUGACUAUACUGAACUUCACCAGCAAAAUACAGAUUUGAUAUAUCAGACU", "bound/input enrichment [ratio]": 1.96}
{"Strand": "CUGGGACCUGAAGGACUUGAACUUAUUGAGAAACUCCUCCAGAACAGAAUUACAAUUGUGGACCGAUUUCUUAAUUCUUCAAAUGAUCAUAGGUUUCAGGCUCUUCAAGACAAUUGUAAA", "bound/input enrichment [ratio]": 0.122}
{"data": "Single results of other studies"}
{"Molecule": "KLLPRKLQFFCDP", "target": "human cyclin A2", "assay": "peptide binding, competitive growth sequencing", "system": "peptide, Saccharomyces cerevisiae, cyclin A2-Cln2 fusion strain", "setting": "concentration not given", "scale": "relative to: unfused Cln2 strain, direction not given", "measurement": "binding score", "result": 4.61}
{"note": "A few entries again (study 3):"}
{"Strand": "GGUCGUGGUGUUUUAAAAGCAUAAGUUACCUGUUUGCACUGUUUUAAGAUAGGAAAAAAAAACCGUGGGCAAGGUGAACAUCAGACGUAAAUUUGUGUGUUUUUAUUUUGUCAUGCUCUU", "bound/input enrichment [ratio]": 0.423}
{"Strand": "CGAGUUGAUCAAGGGGCUGCAACAGCUCUCAGUAGGAAAGACAAUGCCAGCAACAUAUACCGCAAAAAUACUGACUAUACUGAACUUCACCAGCAAAAUACAGAUUUGAUAUAUCAGACU", "bound/input enrichment [ratio]": 1.96}
